Experimental data pooled from the literature.
KIT: Mast/stem cell growth factor receptor Kit (KIT, Homo sapiens, UniProt P10721)
KIT A829P: Mast/stem cell growth factor receptor Kit (KIT, Homo sapiens, UniProt P10721, A829P)
KIT D816H: Mast/stem cell growth factor receptor Kit (KIT, Homo sapiens, UniProt P10721, D816H)
KIT D816V: Mast/stem cell growth factor receptor Kit (KIT, Homo sapiens, UniProt P10721, D816V)

Compound | target | test | conditions | how to read | remaining binding
Cc1cnc2nc1Nc1cccc(c1)COC/C=C/COCc1cc(ccc1OCCN1CCOCC1)N2 | KIT | binding | 0.1 µM | – | 23%
CNC1C[S+]2CC[S+]3CC[S+](C1)[Ru-4]321([N]=C=S)[n]2c3ccc(OC)cc3c3c4c(c5cc(F)c[n+]1c5c32)C(=O)NC4=O (centres unmarked) | KIT A829P | KinomeScan | 0.1 µM | baseline: untreated | 30%
Cc1ccc(-c2c(/C=C(\C#N)C(=O)NC(C)C)n(CCCO)c3ncnc(N)c23)cc1 | KIT D816H | cell-free assay, competition with immobilised ligand | 1 µM | – | 86%
CNC(=O)C1CCN(c2cc(C)c(F)cc2NC(=O)c2ccc(-c3cc(O)ccc3C)c(C)c2)CC1 | KIT (Homo sapiens, UniProt P10721, T670I/V559D) | binding, competition with immobilised ligand | 1 µM | – | 93%
CCN1CCN(Cc2ccc(C(=O)Nc3ccc(C)c(NCc4cnc5[nH]ccc5c4OC)c3)cc2C(F)(F)F)CC1 | KIT A829P | binding, competition with immobilised ligand | 1 µM | – | 3%
COc1c(Cl)cccc1Nc1c(-c2ccncc2C#C[C@@]2(C)CCCN2C(=O)/C=C/CN(C)C)[nH]c2c1C(=O)NCC2 | KIT D816V | binding, competition with immobilised ligand | 3 µM | – | 98%
C=CC(=O)N1CCc2ccc(-n3c(=O)ccc4cnc5ccc(-c6cnn(C)c6)cc5c43)cc21 | KIT D816H | KINOMEscan | 1 µM | baseline: DMSO control | 96%
C=CC(=O)N1CCCC(n2c(=O)c3ncccc3n(Cc3ccc(Oc4ccccc4)cc3)c2=O)C1 (centres unmarked) | KIT | cell-free assay, competition with immobilised ligand | 1 µM | – | 100%
CN1CCN(Cc2ccc(NC(=O)c3cccc(C#Cc4cnc(N)c5ncccc45)c3)cc2C(F)(F)F)CC1 | KIT | cell-free assay, competition with immobilised ligand | 0.5 µM | – | 0.1%
Nc1ncc2c(n1)-c1c([nH]c3ccc(C4=CCOCC4)cc13)CCC2 | KIT (Homo sapiens, UniProt P10721, L576P) | binding, competition with immobilised ligand | 1 µM | – | 100%
CC(C)=CC1OC(C)(C)C2C=C3C(=O)C(Cl)=CC(O)C3C3C(O)C4OC4C(=O)C132 (centres unmarked) | KIT D816V | cell-free assay, competition with immobilised ligand | 10 µM | – | 84%
